Experimental data from different studies.
Each line is one published result; not all experiments were run side by side. Values joined by “and” are separate records of one study, mostly repeats; a detail may differ. ± marks the error that the study gave.

SMILES | target or system | test | test system | conditions | scale | quantity | result
C=CC(=O)Nc1cccc(Cn2ncc3cnc(Nc4cnn(CCOC)c4)nc32)c1 | LIMK1 human | binding, KINOMEscan | – | 100 nM | lower = stronger binding | percent of control | 45%
COC1CN([C@H]2CC[C@H]([C@@]3(C)Oc4c(Cl)cc(C(=O)NCc5c(SC)cc(C)[nH]c5=O)c(C)c4O3)CC2)C1 | – | RNA-seq, measured: FRMD4B mouse homolog | mouse, HT-1376 xenograft, whole blood | dose not given | reference: vehicle | log2 fold change | 0.953
COc1cc(/C=C/C(=O)/C=C(O)/C=C/c2ccc(OCC(=O)N3CCOCCOCCOCC3)c(OC)c2)ccc1OCC(=O)N1CCOCCOCCOCC1 | SK-LU-1 | cell growth or viability, SRB | – | 25 µM | – | inhibition | 81.5%
O=C(N/N=C/c1cc[n+](CC2CC2)c2ccccc12)N/N=C/c1cc[n+](CC2CC2)c2ccccc12 | myc22 MYC G4-DNA parallel | FRET melting | – | 1 µM, K1 buffer, DNA 0.2 µM, added: ds26 10 µM | – | ΔTm | 3.7 ± 0.5 °C
CC(=O)N[C@@H](Cc1ccc(I)cc1)C(=O)N[C@@H](CCC(=O)O)C(=O)N[C@H](C(=O)N[C@@H](CC(=O)O)C(=O)COC(=O)c1c(C)cccc1C)[C@@H](C)O | THP-1 cells expressing FKBP-caspase-11 | pyroptosis, inhibitor | – | concentration not given, added: B/B dimerizer | – | LDH release | 25.1% and 26% and 35.9%
C1=[N+]2CCCC[N+]3=Cc4ccc5[n]4[Au-]23[n]2c1ccc2-c1nc2ccccc2nc1-5.F[P-](F)(F)(F)(F)F | SN12C | NCI60 five-dose screen | – | – | – | TGI | 5.31 -log M
O=C(NCc1cc(F)cc(F)c1)[C@@]1(O)CCN(c2ccc3[nH]ccc3c2)C1=O | PAXF736 | colony formation, soft agar clonogenic | pancreas tumour | – | – | efficacy | 45%
O=C(C[Se]C(=O)c1cc2ccccc2s1)Nc1cccc(C(F)(F)F)c1 | NCI60 colon subpanel | NCI60 five-dose screen | – | – | – | mean TGI | 7060 nM
CC[C@H]1CN([C@@H](CC)c2ccc(C(F)(F)F)cc2)[C@H](CC)CN1c1nc(=O)n(C)c2ccc(C#N)nc12 | SAOS-2 | T cell tumour killing | – | 72 h, added: T cells, NY-ESO-1 TCR, effector:target 1:2 | – | EC50 | 1 nM
CNC(=O)CCN(Cc1ccc(C(F)F)cc1)C(=O)c1cc2c(OC)ccc(-c3ccc(=O)n(C)c3)c2s1 | murine AML cells | BRD4 chromatin occupancy, ChIP-seq, measured: Irf2bp2 locus | – | concentration not given | reference: DMSO | log2 fold change | -2.78
Nc1ncc(-c2cc(-c3cnn(CC(F)(F)F)c3)ncc2F)nc1C(=O)NC1CNCC(F)C1 (centres unmarked) | FLT3-autoinhibited | KINOMEscan competition binding | – | 1 µM | reference: DMSO control | remaining binding | 87%
Cc1ncsc1-c1ccc(C(C)NC(=O)C2CC(O)CN2C(=O)C(NC(=O)CCCCCCCCCCN2CCCC(Nc3ncc(Cl)c(Nc4ccccc4S(=O)(=O)C(C)C)n3)C2)C(C)(C)C)cc1 (centres unmarked) | 22Rv1 | RNA-seq, measured: ZSWIM4 mRNA | – | concentration not given | reference: DMSO | log2 fold change | -2.46
CN1CCCNC(=O)c2cccc(c2)C(=O)NCCCN(C)CCCNc2cccc3c2C(=O)c2cccc(c2C3=O)NCCC1 | SAS | RNA-Seq, measured: MBOAT2 mRNA | – | 1 µM, 6 h | reference: untreated cells | log2 fold change | -1.01
COc1cccc(OC)c1-c1cc(C(=O)NC2(C(=O)O)C3CC4CC(C3)CC2C4)nn1-c1ccc(C(=O)N(C)CCOCCN(C)C(=O)[C@H](CCCCNC(=O)[C@H](CC(C)C)NC(=O)C2OC2C(=O)O)NC(=O)CN2CCN(CC(=O)[O-])CCN(CC(=O)[O-])CCN(CC(=O)[O-])CC2)cc1C(C)C.[177Lu+3] (mixture of isomers) | HT-29 | – | – | concentration not given, 30 min | reference: added activity | surface-bound fraction | 1.83 ± 0.07%
O=C(N/N=C/c1ccc2c(ccc[n+]2Cc2ccccc2)c1)c1cccc(C(=O)N/N=C/c2ccc3c(ccc[n+]3Cc3ccccc3)c2)n1 | myc22 MYC G4-DNA parallel | FRET melting | – | 1 µM, K1 buffer, DNA 0.2 µM, added: ds26 10 µM | – | ΔTm | 16.1 ± 0.2 °C
O=C(C[Se]C(=O)c1ccccc1Nc1ccccc1)Nc1cccc(C(F)(F)F)c1 | NCI60 colon subpanel | cell growth | – | 10 µM, 48 h, one-dose | – | mean growth percent | -30.3%
O=CCNCCOn1c(=O)n(OCCNCCO)c(=O)n(OCCNCCOn2c(=O)n(OCCNCCO)c(=O)n(OCCNCCO)c2=O)c1=O | A549 | cell growth or viability, MTT | – | 100 µg/mL, 72 h | – | viability | 34.2%
Cc1cc(C)nc(NC(=S)N2CCN(Cc3ccc(C(F)(F)F)cc3)CC2)c1 | MDA-MB-468 | isotope labelling | – | 10 µM, 24 h, added: U-13C-serine | – | M+1 dTMP pool | decreased
Cc1ccncc1.[Cl-].[Cl-].[Ru+2].c1cc(-c2ccc3cccnc3n2)nc(-c2ccc3cccnc3n2)c1.c1ccc2cc3nc4c5cccnc5c5ncccc5c4nc3cc2c1 | SK-MEL-28 | photocytotoxicity | – | visible light 400-700 nm, 100 J/cm2, oxygen 18.5% | – | EC50 | 595 ± 5 nM
CC(C)c1ccc(N(C)c2ccc3c(c2)OCC[C@H]3CNc2cnccc2C(=O)O)cc1 | KNS-62 | cell growth or viability, ATP luminescence | – | 7 days | – | IC50 | 14.9 nM
CCN(C(=O)c1cc(F)ccc1Oc1nncnc1N1CCC2(C1)CN([C@H](CCCN(C)CCOC)C(C)C)C2)C(C)C | Granta-519 | cell growth or viability | – | 7 days | – | GI50 | > 10000 nM

SMILES | target or system | test | test system | conditions | scale | quantity | result
CCCCCCc1cccc(C(O)CC(CO)NC(=O)CCCCCCCCCCNC(C)=O)c1 (centres unmarked) | HeLa | CERT activity, HPLC-MS/MS lipidomics, measured: sphingomyelin 24 | – | 1 µM, 24 h, not cell-number normalised | – | sphingomyelin level | 42300 pmol/sample and 50300 pmol/sample and 48800 pmol/sample
Cn1ncc2cc(-c3cncc(Cl)c3N3CCC4(CCNC4=O)CC3)ccc21 | LS174T | gene expression, microarray, measured: DRD2 mRNA | – | concentration not given, 24 h | reference: untreated cells | log2 fold change | 4.07
O=C(O)C1OC(Oc2ccc3c(=O)cc(-c4ccccc4)oc3c2)C(O)C(O)C1O (centres unmarked) | MDCKII-UGT1A1/MRP2 cells | glucuronide efflux, substrate | – | – | – | Jmax | 16.5 ± 0.98 pmol/mg/min
NC(Cc1ccccc1)C(=O)N1CC(=Cc2ccc(Cl)c(Cl)c2)C(=O)C(=Cc2ccc(Cl)c(Cl)c2)C1 (centres unmarked) | BRD4-HiBiT cells | BRD4 degradation rescue, inhibitor | – | 8 h, 50% degradation rescued, added: dBET6 500 nM | – | EC50 | 1500 nM
O=C(C[Se]C(=O)c1ccc2ccccc2c1)Nc1cccc(C(F)(F)F)c1 | NCI60 colon subpanel | NCI60 five-dose screen | – | – | – | GI50 | 2860 nM
CNS(=O)(=O)Nc1nccc(Cc2c(C)c3ccc(Oc4ncccc4F)cc3oc2=O)c1F | MFM-223 | cell viability | – | 7 days | – | IC50 | > 1000 nM
O=C(O)C1OC(Oc2cc(O)c3c(=O)c(O)c(-c4ccc(O)cc4)oc3c2)C(O)C(O)C1O (centres unmarked) | MDCKII-UGT1A1/MRP2 cells | glucuronide efflux, substrate | – | – | – | Jmax | 12 ± 2.93 pmol/mg/min
C=CC(=O)N1[C@H](c2ccc3c(c2)OCO3)c2[nH]c3ccccc3c2C[C@@H]1C(=O)NC1CC1 | rat DRG neurons | – | – | 3.333 µM, 48 h, added: vincristine 40 nM | – | mean neuron degeneration | 18.7%
COc1ncccc1CN(C(=O)OCc1ccc([N+](=O)[O-])s1)[C@H]1C[C@@H]1c1ccccc1 (racemic) | THP-1 cells expressing NTR | MTS | – | 72 h | – | GI50 | 12100 ± 1300 nM
Cc1ccc(-n2cc(CSc3nc4ccccc4n3Cc3cn(-c4ccc(C)cc4)nn3)nn2)cc1 | Caco-2 | MTT | – | 31.3 ppm | – | cytotoxicity | 77.5%
c1ccc2c(Cc3c(-c4c[nH]c5ccccc45)[nH]c4ccccc34)c[nH]c2c1 | human monocytes | – | – | 5 µM | reference: DMSO | IL-6 induction | increased
CCN(CC)CC(=O)Nc1cccc(-n2cc(-c3ccc4ccc(-c5cn(-c6cccc(NC(=O)CN(CC)CC)c6)nn5)cc4c3)nn2)c1 | RCC4 | PCR angiogenesis array, measured: IL8 | – | 5 x IC50, 2 h, normoxia | reference: untreated | fold regulation | -1.61
C=C(NC(=O)c1csc(-c2nc3c(cc2O)-c2nc(cs2)C(=O)NC(C(C)O)C(=O)NC(=C(C)OC)c2nc(cs2)C(=O)NC2c4nc(cs4)C(=O)NC(COC(=O)c4c5c6c(cccc6n4O)COC(=O)C(OC4CC(C)(O)C(N(C)C)C(C)O4)C2OC5)c2nc-3cs2)n1)C(N)=O (centres unmarked) | – | – | ICR mice, Streptococcus pneumoniae ATCC 49169 infected, immunocompromised, blood | intravenous, 4 mg/kg/day once daily | – | Cmax | 415 ng/mL
O=C(C[Se]C(=O)c1ccccc1Nc1cccc(C(F)(F)F)c1)Nc1cccc(C(F)(F)F)c1 | NCI60 colon subpanel | NCI60 five-dose screen | – | – | – | mean TGI | 10600 nM
CC(C)n1nc(C(F)F)cc1C(=O)Nc1ccc([C@H]2[C@@H](O)CCCc3cncn32)c(-c2ccccc2)c1 | BRD4-HiBiT cells | BRD4 degradation rescue, inhibitor | – | 8 h, added: dBET6 500 nM | – | EC50 | 99.7 nM
COC1=C2CC(C)CC(OC)C(O)C(C)C=C(C)C(OC(N)=O)C(OC)C=CC=C(C)C(=O)NC(=CC1=O)C2=O (centres unmarked) | Rh30 | ChIP-seq, measured: H3K36me3 peak | – | concentration not given, promoter-TSS chr11:62617800-62624399 | reference: untreated control | log fold change | -0.702
CCN(CC)CCNC(=S)Nc1ccc2nc(N3CCN(CC)CC3)cc(C)c2c1 | U2OS HDR-GFP reporter | homology-directed repair, flow cytometry | – | 10 µM | – | GFP-positive cells | 6.68%
CCOc1cncc(-c2ccc(NC(=O)C3(c4ccnc(NS(=O)(=O)C5CC5)n4)CCOCC3)nc2)n1 | Fu97 | cell proliferation, CellTiter-Glo | – | 72 h, Gastric cancer | – | IC50 | 10000 nM
Cc1cc(Cl)cc(-c2ccnc3cc(CN4C(=O)C5C(C4=O)C5(C)C)sc23)c1C[C@@H]1CNCCO1 (some centres unmarked) | CHP-212 resistant | annexin V/PI flow cytometry | – | 0.3 µM, 48 h | – | apoptotic cells | 11.1%
COC(=O)c1cc(NC2=NC(=O)C(=Cc3ccc(C)cc3)S2)ccc1OC(C)=O | MCF7 | GC-MS, measured: Palmitic acid | – | 1 µM | reference: DMSO | metabolite level | 0.3 fold change

Excerpt of the above:
SMILES | target or system | test | test system | conditions | scale | quantity | result
CCN(C(=O)c1cc(F)ccc1Oc1nncnc1N1CCC2(C1)CN([C@H](CCCN(C)CCOC)C(C)C)C2)C(C)C | Granta-519 | cell growth or viability | – | 7 days | – | GI50 | > 10000 nM
O=C(C[Se]C(=O)c1ccccc1Nc1ccccc1)Nc1cccc(C(F)(F)F)c1 | NCI60 colon subpanel | cell growth | – | 10 µM, 48 h, one-dose | – | mean growth percent | -30.3%
